# Assay results gathered from unrelated publications.
# A part holds a random share of what one study measured. Substitutions count along the parent as printed.

# Sample 1
# Target: Histone acetyltransferase KAT6A, both winged helices, GST fusion (KAT6A, Homo sapiens, UniProt Q92794, residues 1-181)
# Technique: protein binding microarray
# Form: double-stranded DNA, one strand shown
# Matrix: in vitro
# Concentration: not given
# Setting: 8-mer, flanks averaged, mean of 2 arrays, mostly near background
# Reference: not given
# Direction: higher = stronger binding
# Target sequence (chain): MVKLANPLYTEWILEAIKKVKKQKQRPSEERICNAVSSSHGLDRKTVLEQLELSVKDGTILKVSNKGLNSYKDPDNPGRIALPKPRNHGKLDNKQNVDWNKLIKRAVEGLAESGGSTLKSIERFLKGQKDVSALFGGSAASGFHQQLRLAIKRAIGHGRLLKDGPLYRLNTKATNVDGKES
Strand,E-score
AACGCAGT,0.129
TATCGTCA,0.0519
CTGTTTGC,0.0172
ATGAGATC,-0.169
CCTTTATA,-0.13
CACAACTC,-0.156
ATAGGCCA,-0.0369
CCTATAAA,-0.105
CGGGCCAC,0.189
AACGTATT,0.0434
AAGCCGAA,-0.0127
ATCCTACG,-0.13
ATGAAACA,0.0677
ACTAGACC,-0.0688
CAAGTACC,-0.0723
ACCTGCGC,0.14
GGGGTATA,-0.173
GCTACAGA,-0.195
CTGTGAGA,-0.0105
CACCTACA,-0.209

# Sample 2
# Target: Fragile X messenger ribonucleoprotein 1, C-terminal low-complexity region (Fmr1, Mus musculus, UniProt P35922)
# Technique: RNA Bind-n-Seq
# Form: RNA
# Matrix: in vitro
# Concentration: 200 nM
# Setting: whole 134-nt RNA, ends assumed
# With: 150 mM KCl
# Reference: input library
# Direction: higher = stronger binding
# Constant ends, left off below: GGGAGUUCUACAGUCCGACGAUC … UGGAAUUCUCGGGUGUCAAGG
Strand,log2 enrichment
GCAGGAAGUAAAAACAAAUGGAAAUGCUUCGGAUAGUGGCAGGGGUGGGGGUUGAAAAGGAAAGGGUGGGAUGGGAGUGGGUAAAGAGUU,0.403
UAACUUUAGAGGAGGAUCUGAUGGAUAUGGCAGUGGACGUGGAUUUGGGGAUGGCUAUAAUGGGUAUGGAGGAGGACAUGGAGGUGGCAA,0.282
CAAGUCCUGUGCUACACAUCGUAUGUACCGAAUCGGGGAAGGGAAGGGGAAGGGGAAAGUAUUAUGUUACGCCGUUCGGAUCUGCACUUC,0.82
UUGUGAGCUGCAAGCUAGGCUGCAGGCCCAGGAAGAACAGCAUCAGGAAGUCCAGAAGGCAAAAGAAGCAGACAUAGAGAAGCUGAACCA,-1.25
CAAGUCCUGUGCUACACAUCGUAUGUACCGAAUCGGGUGGGUGGGAAAAAAAGGGAAAGUAUUAUGUUACGCCGUUCGGAUCUGCACUUC,0.513
UGGGAGGUGGAUUUUGUUUAUUUUUUUAGCUCAUUUACAGGGGUGGGAAUUUUUUUUUAAUAUGUGUCAUGAAUAAAGUUGUUUUUGAAA,0.201
UAGGAGGUGGAUUUUGUUUAUUUUUUUAGCUCAUUUCCAGGGGUGGGAAUUUUUUUUUAAUAUGUGUCAUGAAUAAAGUUGUUUUUGAAA,-0.154
CUCAAGUCCUGUGCUACACAUCGUAUGUACCGAAUCGGCCGGGCCGGGGCCGGGAAAGUAUUAUGUUACGCCGUUCGGAUCUGCACUUCC,-0.0649
UGGGAGGUGGAUUUUGUUUAUUAUUUUAGCUCAUUUCCAGGGGUGGGAAUUUUUUUUUAAUAUGUGUCAUGAAUAAAGUUGUUUUUGAAA,0.19
UCCUGUGCUACACAUCGUAUGUACCGAAUCGGGUUUGGGUUUUUUUGGGUUUUUUUGGGAAAGUAUUAUGUUACGCCGUUCGGAUCUGCA,0.329

# Sample 3
# Target: MAFG, bZIP domain (human)
# Technique: DHFR protein complementation
# Matrix: yeast
# Setting: single substitutions, most at no-binding floor
# Reference: wild-type JUN-FOS pair
# Direction: higher = stronger binding
# Starting sequence: JUN, bZIP domain (human); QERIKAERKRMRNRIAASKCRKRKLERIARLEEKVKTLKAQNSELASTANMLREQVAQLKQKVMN; partner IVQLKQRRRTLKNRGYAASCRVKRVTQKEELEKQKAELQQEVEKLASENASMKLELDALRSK
Variant,binding fitness [natural log]
E33A,-1.49
K36G,-1.48
Q41L,-1.5
A46N,-1.52
I28P,-1.49
A29E,-1.45
E44C,-1.2
Q55W,-1.55
E32G,-1.45
L59H,-1.41
A29W,-1.47
L45K,-1.47
R30F,-1.37
V35Y,-1.46
K36R,-1.34
T37Q,-1.5
Q41C,-1.43
L31D,-1.56

# Sample 4
# Target: Interferon regulatory factor 3, full length, phosphomimetic (IRF3, Homo sapiens, UniProt Q14653, residues 1-427, S386D/S396D/S398D/S402D/T404D/S405D)
# Technique: protein-binding microarray
# Form: double-stranded DNA, one strand shown
# Matrix: in vitro
# Concentration: 2540 nM top
# Setting: 60-bp whole probe
# With: salmon DNA 0.4 mg/ml
# Reference: random background probes
# Direction: higher = stronger binding
# Constant ends, left off below: GCCTAGCAC … GTCTTGATTCGCTTGACGCTGCTG
# Residues (chain): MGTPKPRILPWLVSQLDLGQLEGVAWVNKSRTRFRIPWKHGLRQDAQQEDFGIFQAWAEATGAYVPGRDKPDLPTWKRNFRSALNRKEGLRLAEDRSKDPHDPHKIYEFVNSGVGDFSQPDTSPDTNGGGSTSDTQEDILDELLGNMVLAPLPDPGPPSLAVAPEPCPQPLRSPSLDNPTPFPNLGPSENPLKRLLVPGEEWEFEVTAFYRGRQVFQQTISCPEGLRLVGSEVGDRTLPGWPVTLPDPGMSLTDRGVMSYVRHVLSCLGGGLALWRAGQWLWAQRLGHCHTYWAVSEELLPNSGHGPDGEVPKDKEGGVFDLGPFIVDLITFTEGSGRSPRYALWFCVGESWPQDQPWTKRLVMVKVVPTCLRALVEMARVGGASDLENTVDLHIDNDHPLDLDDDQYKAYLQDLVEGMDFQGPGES
Strand,fitted relative affinity
TTAGATCTCAGTTTCGACTAGTGCTAG,1.88 z-score
TCACATCTGCAACATCTAACTGTGCTA,0.601 z-score
TTAGAACTGAGTCTCAATTAGTGCTAG,-0.304 z-score
TTAGATCTTAGTATCGATTAGTGCTAG,0.689 z-score
ATAGGTTTCTATATTTGCTTGTGCTAG,2.53 z-score
TCAGAGTCCTGTTTGATACTGTGCTAG,0.176 z-score
TTAGGTTCCCTTTTCCTTCAGTGCTAG,7.56 z-score
TCATGCTTAGTATTTTTTACTGTGCTA,-0.35 z-score
CTAATATTCTGCTTTGCAATGTGCTAG,1.16 z-score
TTAGAACTGAGTAGCGATTAGTGCTAG,-0.289 z-score
TGTTCTTTTCTGTTGTCTGTGTGCTAG,2.86 z-score
TTTGTAATCGAAATCTTCATGTGCTAG,0.403 z-score
GACGGTACCCTTCTCCTGACGTGCTAG,5.13 z-score
GACGGTCTCAGACTGGGGACGTGCTAG,0.177 z-score
TCATACTTCTCTTTTGGACTGTGCTAG,1.39 z-score
TCACCAATCAGGACTCAGACTGTGCTA,1.15 z-score
TTAGGCTCCGGTTTCGGTTAGTGCTAG,4.27 z-score
TTAGGACTGGGGTATCGCTTAGTGCTA,-0.615 z-score

# Excerpt of the above (sample 4):
Strand,fitted relative affinity
ATAGGTTTCTATATTTGCTTGTGCTAG,2.53 z-score
TCACATCTGCAACATCTAACTGTGCTA,0.601 z-score
TCACCAATCAGGACTCAGACTGTGCTA,1.15 z-score
TTAGGACTGGGGTATCGCTTAGTGCTA,-0.615 z-score
TCAGAGTCCTGTTTGATACTGTGCTAG,0.176 z-score
